Experimental data gathered from unrelated publications.
A part holds a random share of what one study measured. Values joined by “and” are separate records of one study, mostly repeats; a detail may differ.
Sequence of UniProt P15056 (whole entry, unmodified, looked up): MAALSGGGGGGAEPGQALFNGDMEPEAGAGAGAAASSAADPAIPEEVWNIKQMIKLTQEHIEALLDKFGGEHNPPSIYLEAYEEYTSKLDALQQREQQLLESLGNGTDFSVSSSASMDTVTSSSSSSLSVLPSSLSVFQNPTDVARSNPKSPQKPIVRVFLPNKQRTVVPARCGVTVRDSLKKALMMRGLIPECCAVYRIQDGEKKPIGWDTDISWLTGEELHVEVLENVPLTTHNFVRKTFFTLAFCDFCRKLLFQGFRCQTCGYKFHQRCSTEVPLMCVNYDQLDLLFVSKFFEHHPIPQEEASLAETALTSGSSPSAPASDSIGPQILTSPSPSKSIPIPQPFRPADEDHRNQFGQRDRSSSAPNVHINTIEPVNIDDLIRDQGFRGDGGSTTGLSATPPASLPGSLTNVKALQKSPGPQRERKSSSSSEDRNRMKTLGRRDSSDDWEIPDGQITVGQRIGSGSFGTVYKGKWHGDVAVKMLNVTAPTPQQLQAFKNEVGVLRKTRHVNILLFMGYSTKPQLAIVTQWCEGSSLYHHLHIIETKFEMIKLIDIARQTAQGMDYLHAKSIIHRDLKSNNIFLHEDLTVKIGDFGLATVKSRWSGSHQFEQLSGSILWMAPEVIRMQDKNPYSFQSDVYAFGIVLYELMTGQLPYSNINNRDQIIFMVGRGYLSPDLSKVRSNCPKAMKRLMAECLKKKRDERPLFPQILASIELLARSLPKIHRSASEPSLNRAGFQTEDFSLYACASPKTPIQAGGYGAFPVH
Sequence of UniProt P53779 (whole entry, looked up): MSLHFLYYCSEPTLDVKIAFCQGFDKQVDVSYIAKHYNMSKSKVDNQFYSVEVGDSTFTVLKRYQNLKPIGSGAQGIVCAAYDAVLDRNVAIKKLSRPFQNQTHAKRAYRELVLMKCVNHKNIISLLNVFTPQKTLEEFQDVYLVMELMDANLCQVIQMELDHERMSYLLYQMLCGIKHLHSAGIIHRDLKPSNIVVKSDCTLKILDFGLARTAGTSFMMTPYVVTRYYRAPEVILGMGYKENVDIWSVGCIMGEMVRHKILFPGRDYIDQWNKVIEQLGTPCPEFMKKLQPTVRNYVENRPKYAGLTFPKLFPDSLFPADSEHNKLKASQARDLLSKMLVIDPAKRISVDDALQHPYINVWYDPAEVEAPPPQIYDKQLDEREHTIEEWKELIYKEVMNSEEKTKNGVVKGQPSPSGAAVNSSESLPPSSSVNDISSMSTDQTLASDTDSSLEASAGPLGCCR
Sequence of UniProt P07949 (whole entry, looked up): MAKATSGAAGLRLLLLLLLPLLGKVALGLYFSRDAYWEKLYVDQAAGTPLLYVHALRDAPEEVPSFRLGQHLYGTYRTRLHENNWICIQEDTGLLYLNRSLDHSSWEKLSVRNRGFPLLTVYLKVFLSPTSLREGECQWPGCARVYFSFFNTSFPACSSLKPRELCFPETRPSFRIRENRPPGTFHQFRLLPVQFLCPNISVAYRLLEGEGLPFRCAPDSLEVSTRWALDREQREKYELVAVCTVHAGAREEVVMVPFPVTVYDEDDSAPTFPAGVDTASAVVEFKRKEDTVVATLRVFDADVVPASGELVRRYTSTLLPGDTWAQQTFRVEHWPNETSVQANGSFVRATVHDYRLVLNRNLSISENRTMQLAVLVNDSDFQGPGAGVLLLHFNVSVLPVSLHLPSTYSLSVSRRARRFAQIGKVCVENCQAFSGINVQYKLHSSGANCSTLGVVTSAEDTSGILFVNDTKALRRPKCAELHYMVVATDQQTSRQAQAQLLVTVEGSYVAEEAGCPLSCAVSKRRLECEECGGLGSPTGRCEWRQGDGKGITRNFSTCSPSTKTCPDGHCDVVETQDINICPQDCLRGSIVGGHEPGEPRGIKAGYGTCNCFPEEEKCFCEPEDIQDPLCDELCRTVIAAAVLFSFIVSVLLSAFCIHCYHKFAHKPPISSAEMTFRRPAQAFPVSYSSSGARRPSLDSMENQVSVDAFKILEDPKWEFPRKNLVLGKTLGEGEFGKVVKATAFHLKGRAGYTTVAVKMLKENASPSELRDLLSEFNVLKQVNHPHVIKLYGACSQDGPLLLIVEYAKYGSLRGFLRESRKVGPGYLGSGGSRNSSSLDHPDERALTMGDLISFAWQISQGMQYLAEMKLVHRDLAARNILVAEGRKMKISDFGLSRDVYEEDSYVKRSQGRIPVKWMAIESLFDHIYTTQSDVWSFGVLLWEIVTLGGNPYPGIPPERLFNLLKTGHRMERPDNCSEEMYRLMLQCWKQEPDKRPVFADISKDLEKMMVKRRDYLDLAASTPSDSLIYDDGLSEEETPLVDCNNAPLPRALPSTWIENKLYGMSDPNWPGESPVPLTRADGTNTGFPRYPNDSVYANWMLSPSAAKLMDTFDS
Sequence of UniProt P30530 (whole entry, looked up): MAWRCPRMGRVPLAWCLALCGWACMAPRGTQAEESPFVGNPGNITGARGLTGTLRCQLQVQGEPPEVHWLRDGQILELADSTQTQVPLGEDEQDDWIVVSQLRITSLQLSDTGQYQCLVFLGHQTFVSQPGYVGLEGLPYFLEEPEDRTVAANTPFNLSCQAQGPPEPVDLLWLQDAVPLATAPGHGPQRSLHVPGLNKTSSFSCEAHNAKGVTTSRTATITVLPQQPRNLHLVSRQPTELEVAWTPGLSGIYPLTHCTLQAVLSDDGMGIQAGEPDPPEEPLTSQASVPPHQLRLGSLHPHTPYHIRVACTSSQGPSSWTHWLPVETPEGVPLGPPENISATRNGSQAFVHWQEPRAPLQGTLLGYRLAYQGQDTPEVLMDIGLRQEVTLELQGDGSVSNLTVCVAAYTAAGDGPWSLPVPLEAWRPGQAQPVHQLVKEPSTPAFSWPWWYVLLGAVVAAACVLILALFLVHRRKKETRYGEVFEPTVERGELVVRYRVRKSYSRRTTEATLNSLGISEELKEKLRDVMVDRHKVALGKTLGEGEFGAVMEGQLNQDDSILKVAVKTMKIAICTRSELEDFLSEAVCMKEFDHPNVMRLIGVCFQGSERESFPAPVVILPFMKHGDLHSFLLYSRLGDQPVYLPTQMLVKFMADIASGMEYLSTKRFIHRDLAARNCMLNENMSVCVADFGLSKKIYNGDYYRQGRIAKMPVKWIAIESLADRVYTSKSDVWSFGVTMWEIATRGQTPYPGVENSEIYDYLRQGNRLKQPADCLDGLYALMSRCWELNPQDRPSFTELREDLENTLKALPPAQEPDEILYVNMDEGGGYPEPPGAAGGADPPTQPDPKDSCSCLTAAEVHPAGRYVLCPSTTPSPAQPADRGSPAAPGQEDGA
Sequence of UniProt P24723 (whole entry, looked up): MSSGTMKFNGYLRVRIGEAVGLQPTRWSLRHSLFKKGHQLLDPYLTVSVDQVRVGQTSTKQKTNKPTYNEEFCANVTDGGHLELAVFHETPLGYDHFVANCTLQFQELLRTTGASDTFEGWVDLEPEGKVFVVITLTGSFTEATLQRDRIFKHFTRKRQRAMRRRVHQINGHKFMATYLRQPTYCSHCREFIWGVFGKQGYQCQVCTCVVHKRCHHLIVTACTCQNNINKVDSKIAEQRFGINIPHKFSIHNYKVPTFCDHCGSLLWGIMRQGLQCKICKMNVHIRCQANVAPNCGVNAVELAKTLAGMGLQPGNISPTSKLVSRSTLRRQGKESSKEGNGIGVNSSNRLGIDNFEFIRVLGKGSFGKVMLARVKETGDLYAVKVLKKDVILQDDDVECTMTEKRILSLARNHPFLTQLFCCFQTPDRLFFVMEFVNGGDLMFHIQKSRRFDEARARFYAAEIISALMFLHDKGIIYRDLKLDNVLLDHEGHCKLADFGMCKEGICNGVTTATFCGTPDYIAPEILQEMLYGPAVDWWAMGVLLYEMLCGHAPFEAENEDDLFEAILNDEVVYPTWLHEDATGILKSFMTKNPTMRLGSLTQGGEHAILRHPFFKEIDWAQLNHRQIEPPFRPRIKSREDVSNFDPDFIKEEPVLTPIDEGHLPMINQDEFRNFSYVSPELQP

Series 1 — action: inhibitor; concentration: 5 µM
Compound: O=C1NC(=O)C(c2cn(-c3ccccc3)nc2-c2ccc(F)cc2)N1 (stereo not drawn)
target | assay | system | setting | scale | log2 fold change
Cyclin-dependent kinase 14, with CDC37 (CDK14, Homo sapiens, UniProt O94921) | – | human cells | – | relative to: vehicle | -0.007
RET (Homo sapiens, UniProt P07949) | kinase-CDC37 interaction | human cells | – | relative to: vehicle | -0.358
EGFR (Homo sapiens, UniProt P00533, L858R) | – | human cells | – | relative to: vehicle | -0.415
TSSK3 (Homo sapiens, UniProt Q96PN8) | kinase-CDC37 interaction | human cells | – | relative to: vehicle | 0.101
BRAF (Homo sapiens, UniProt P15056, G469E) | cell-based kinome profiling | human cells | – | relative to: vehicle control | -0.009
kinase–CDC37 interaction | kinase–CDC37 binding | human cells | oncogenic CCDC6-RET fusion | relative to: vehicle | -0.274
Protein kinase C eta type, with CDC37 (PRKCH, Homo sapiens, UniProt P24723) | cell-based kinome screen | human cells | – | relative to: untreated control | -0.166
BRAF (Homo sapiens, UniProt P15056) | kinase-CDC37 interaction | human cells | – | relative to: vehicle | -0.091

Series 2 — species: C57BL/6 CES1-/- mice, EL4 tumour; matrix: EL4 tumour; route: subcutaneous; dose: 0.3 mg/kg/day DON equivalent; time: 5 days
SMILES: CC(=O)N[C@@H](Cc1c[nH]c2ccccc12)C(=O)N[C@@H](CCC(=O)C=[N+]=[N-])C(=O)OC(C)C
assay | setting | scale | metabolite peak intensity
UPLC-MS/MS, item: 4-hydroxyphenylpyruvate | – | – | 121000 a.u. and 189000 a.u. and 165000 a.u. and 123000 a.u. and 143000 a.u. and 175000 a.u.
UPLC-MS/MS metabolomics, item: N-acetylputrescine | normalised to tissue mass | higher = more metabolite | 2.52e+06 a.u. and 2.39e+06 a.u. and 2.6e+06 a.u. and 1.9e+06 a.u. and 1.56e+06 a.u. and 2.56e+06 a.u.
UPLC-MS/MS, item: CoA-glutathione | – | – | 110000 a.u. and 133000 a.u. and 44300 a.u. and 123000 a.u. and 89800 a.u. and 24400 a.u.
LC-MS/MS metabolomics, item: 3'-AMP | normalised to tissue mass | higher = more metabolite | 1.82e+06 a.u. and 1.42e+06 a.u. and 1.61e+06 a.u. and 2.88e+06 a.u. and 2.43e+06 a.u. and 2.66e+06 a.u.
LC-MS/MS metabolomics, item: pantothenate | – | higher = more metabolite | 9.88e+06 a.u. and 6.51e+06 a.u. and 1.52e+07 a.u. and 7.88e+06 a.u. and 1.01e+07 a.u. and 1.27e+07 a.u.

Series 3 — effect on: enzyme activity; action: inhibitor; concentration: 0.5 µM; relative to: control
Target: Ephrin type-A receptor 3 (EPHA3, Homo sapiens, UniProt P29320)
Sequence of UniProt P29320 (whole entry, looked up): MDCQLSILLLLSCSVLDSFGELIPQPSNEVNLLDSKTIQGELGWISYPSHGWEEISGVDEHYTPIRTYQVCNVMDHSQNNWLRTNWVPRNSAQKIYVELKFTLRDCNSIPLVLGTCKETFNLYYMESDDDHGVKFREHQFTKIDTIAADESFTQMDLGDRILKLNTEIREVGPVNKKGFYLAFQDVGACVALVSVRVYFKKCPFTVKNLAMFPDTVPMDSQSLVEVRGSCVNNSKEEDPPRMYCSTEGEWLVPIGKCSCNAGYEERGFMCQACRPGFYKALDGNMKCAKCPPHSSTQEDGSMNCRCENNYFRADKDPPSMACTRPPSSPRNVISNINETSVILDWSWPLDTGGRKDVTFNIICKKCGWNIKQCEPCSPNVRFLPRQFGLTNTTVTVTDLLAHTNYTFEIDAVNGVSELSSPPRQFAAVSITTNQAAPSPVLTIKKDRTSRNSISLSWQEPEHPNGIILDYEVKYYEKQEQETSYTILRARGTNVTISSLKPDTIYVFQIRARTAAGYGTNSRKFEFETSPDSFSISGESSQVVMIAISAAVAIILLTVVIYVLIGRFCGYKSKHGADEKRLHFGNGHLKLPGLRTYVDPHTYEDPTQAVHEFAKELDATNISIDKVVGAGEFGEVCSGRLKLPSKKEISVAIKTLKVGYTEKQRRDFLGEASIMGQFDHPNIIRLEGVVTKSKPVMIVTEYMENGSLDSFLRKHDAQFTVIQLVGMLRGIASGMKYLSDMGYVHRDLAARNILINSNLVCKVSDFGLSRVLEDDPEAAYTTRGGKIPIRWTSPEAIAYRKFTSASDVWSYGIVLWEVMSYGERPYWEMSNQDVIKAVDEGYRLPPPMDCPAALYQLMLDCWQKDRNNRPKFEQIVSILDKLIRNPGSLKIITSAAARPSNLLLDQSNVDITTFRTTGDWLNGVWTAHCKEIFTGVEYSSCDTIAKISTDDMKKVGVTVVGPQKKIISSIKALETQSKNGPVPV
Compound | remaining activity
CN(C)c1ccc(C=C2C(=O)Nc3ccccc32)cc1 | 102%
O=c1c2ccccc2[nH]c(=S)n1CCN1CCC(=C(c2ccc(F)cc2)c2ccc(F)cc2)CC1 | 101%
O=S(=O)(c1cccc2cnccc12)N1CCCNCC1 | 105%
CC(C)[C@H](CO)Nc1nc(Nc2cc(N)cc(Cl)c2)c2ncn(C(C)C)c2n1 | 86.6%
O=C(CCCc1ccc(-c2ccccc2F)cc1)Nc1ccc(O)cc1 | 100%
Cn1sc(=O)n(Cc2ccccc2)c1=O | 107%
CO[C@H]1C[C@@H]2CC[C@@H](C)[C@@](O)(O2)C(=O)C(=O)N2CCCC[C@H]2C(=O)O[C@H]([C@H](C)C[C@@H]2CC[C@@H](O)[C@H](OC)C2)CC(=O)[C@H](C)/C=C(\C)[C@@H](O)[C@@H](OC)C(=O)[C@H](C)C[C@H](C)/C=C/C=C/C=C/1C | 109%
OCC(O)CCON=C1C(c2c(O)[nH]c3ccccc23)=Nc2ccccc21 (stereo not drawn) | 69%
O=C(O)c1ccc2c3c1cccc3c(=O)n1c3ccccc3nc21 | 104%
Cc1ccc(Nc2nccc(N(C)c3ccc4c(C)n(C)nc4c3)n2)cc1S(N)(=O)=O | 94.1%
COc1ccc(OC)c2c(=S)c3ccccc3[nH]c12 | 94.9%
COc1cc2ncnc(Nc3ccc(Oc4ccccc4)cc3)c2cc1OC | 101%
Cc1nc(-c2ccccc2)c(-c2ccncc2)o1 | 109%
COc1ccc(C(=O)Nc2sc3c(c2C(N)=O)CCCC3)cc1OC | 108%
Cc1cccc(-c2[nH]c(C(C)(C)C)nc2-c2ccc3c(c2)OCO3)n1 | 101%
COc1cc2nccc(Oc3ccc(NC(=S)NC(=O)c4ccccc4C)cc3)c2cc1OC | 105%
CNC(=O)c1cc(Oc2ccc(NC(=O)Nc3ccc(Cl)c(C(F)(F)F)c3)cc2)ccn1 | 95.5%
Cn1c2ccccc2c2c3c(c4c5ccccc5n(CCC#N)c4c21)CNC3=O | 97.9%
Nc1[nH]nc2nc3ccccc3nc12 | 95.2%
O=C1NC(=O)C(c2cn(CCCn3ccnc3)c3ccccc23)=C1Nc1ccccc1 | 102%
COc1ccc(CNC(=O)Nc2ncc([N+](=O)[O-])s2)cc1 | 111%
CCOC(=O)c1c(C)[nH]c(/C=C2\C(=O)Nc3ccccc32)c1C | 96.3%

Series 4 — effect on: cell-free assay; technique: competition with immobilised ligand; concentration: 1 µM
Compound: CC(=O)Nc1c(C(C)=O)c(=O)n(C)c2nc(-c3ccc(Cl)cc3Cl)c(-c3ccc(Cl)cc3)cc12
target | remaining binding
HUNK (Homo sapiens, UniProt P57058) | 100%
MTOR (Homo sapiens, UniProt P42345) | 100%
Ribosomal protein S6 kinase alpha-1, C-terminal kinase domain (RPS6KA1, Homo sapiens, UniProt Q15418) | 100%
RIOK2 (Homo sapiens, UniProt Q9BVS4) | 100%
ERBB2 (Homo sapiens, UniProt P04626) | 100%
RPS6KB1 (Homo sapiens, UniProt P23443) | 95%
PIM2 (Homo sapiens, UniProt Q9P1W9) | 100%
AXL (Homo sapiens, UniProt P30530) | 100%
MAST1 (Homo sapiens, UniProt Q9Y2H9) | 100%
MAPK10 (Homo sapiens, UniProt P53779) | 100%

Some of these lines once more (series 2):
assay | setting | scale | metabolite peak intensity
UPLC-MS/MS, item: 4-hydroxyphenylpyruvate | – | – | 121000 a.u. and 189000 a.u. and 165000 a.u. and 123000 a.u. and 143000 a.u. and 175000 a.u.
UPLC-MS/MS metabolomics, item: N-acetylputrescine | normalised to tissue mass | higher = more metabolite | 2.52e+06 a.u. and 2.39e+06 a.u. and 2.6e+06 a.u. and 1.9e+06 a.u. and 1.56e+06 a.u. and 2.56e+06 a.u.
UPLC-MS/MS, item: CoA-glutathione | – | – | 110000 a.u. and 133000 a.u. and 44300 a.u. and 123000 a.u. and 89800 a.u. and 24400 a.u.
LC-MS/MS metabolomics, item: 3'-AMP | normalised to tissue mass | higher = more metabolite | 1.82e+06 a.u. and 1.42e+06 a.u. and 1.61e+06 a.u. and 2.88e+06 a.u. and 2.43e+06 a.u. and 2.66e+06 a.u.
